Published values from different studies.
Compare with care: the assays were run in different laboratories.

`CCCc1cc(OC)c(OC)c(OC)c1OC` has a GI50 of greater than 250 µM (HCT-116; cell growth or viability; 72 h).
`CC[C@H]1OC(=O)[C@H](C(C)C)NC(=O)[C@H](C)OC(=O)[C@@H](C(C)C)NC(=O)[C@@H](C(C)C)OC(=O)[C@H](C(C)C)NC(=O)[C@H](C)OC(=O)[C@@H](C(C)C)NC(=O)[C@@H](C(C)C)OC(=O)[C@H](C(C)C)NC(=O)[C@H](C)OC(=O)[C@@H](C(C)C)NC1=O` — result for “S phase cells”: 9.12% (U-87 MG; PI staining flow cytometry; 0.8 µM, 12 h).
For `CC[C@@]1(OC(=O)CCC(=O)NCCCC[C@H](NC(=O)[C@H](Cc2ccccc2)NC(=O)[C@H](Cc2ccccc2)NC(=O)CCSC2=C(/C=C/C3=[N+](C)c4ccccc4C3(C)C)CCC/C2=C\C=C2\N(C)c3ccccc3C2(C)C)C(=O)N[C@@H](CCCCNC(=O)CCCC[C@@H]2SC[C@@H]3NC(=O)N[C@@H]32)C(=O)O)C(=O)OCc2c1cc1n(c2=O)Cc2cc3ccccc3nc2-1`, the viability was 52.4% (4T1; CCK-8; 5 µM, 2 h then 24 h, together with: 808 nm laser 1 W/cm2 5 min; reference: untreated).
With `CC/C=C\C/C=C\C/C=C\C/C=C\C/C=C\C/C=C\CCC(=O)Nc1ccn(C2OC(CO)C(O)C2(F)F)c(=O)n1` (stereo not drawn) the CC50 was 84.4 µM (SW-620; NCI60 screen).
For `COC1CC(=O)N(C)C=CCCCC(=O)N(C)C(C(C)C)C(=O)N(C)C(CC(C)C)C(=O)OC(C(C)C)CC(C)C1` (stereo not drawn), “pathway activation z-score” read 2.12 (HCT-116; RNA sequencing, refers to: hepatic fibrosis signalling pathway; 20 µM, 12 h; direction not given).
`C[C@H]1C(OCCCCCCCC[P+](c2ccccc2)(c2ccccc2)c2ccccc2)O[C@@H]2O[C@@]3(C)CCC4[C@H](C)CCC1[C@]42OO3` (stereo partly drawn) — result for “G0/G1 phase cells”: 79.9% (T24; PI flow cytometry; 100 nM, 48 h).
`CC[C@H](C)[C@H](NC(=O)[C@@H](Cc1ccccc1)NC(=O)[C@@H](N)C(C)C)C(=O)N[C@@H](C)C(N)=O` has a viability of 92.9% (PC-12; Aβ42-induced neurotoxicity, inhibitor, MTT; concentration not given, 6 h, 37 °C, peptide to Aβ42 1:2, together with: Aβ42 2 µM; reference: untreated cells).
With `CCOP(=O)(OCC)OCCCCOC(=O)CC1=C(C)C(=Cc2ccc([S+](C)[O-])cc2)c2ccc(F)cc21` (stereo not drawn) the apoptosis increase was 3.6 fold (A549 parental; Annexin V/PI staining; concentration not given; reference: ρ0 A549 cells).
With `Cc1ccc(-n2nc3c(=O)n(CCCC(=O)NCC(C)c4ccccc4)nc(C)c3c2C)cc1` (stereo not drawn) the apoptotic cells was 38.3% (MIA PaCa-2; annexin V/PI flow cytometry; 100 µM, 48 h).
For `COC(=O)[C@H](CC(C)C)NC(=O)[C@@H]1CCCN1C(=O)[C@@H](NC(=O)[C@H](CCC(=O)C=[N+]=[N-])NC(=O)OCc1ccccc1)C(C)C`, “PGC-1α mRNA level” read “increased” (Huntington's disease patient myoblasts; 50 µM, 2 h).
The selectivity index of `CCCCN(CCCC)CC(O)COc1c2ccoc2c(OC)c2oc(CC)cc(=O)c12` (stereo not drawn) is reported as 2.48 (HTB-140; MTT; reference: IC50 HaCaT over IC50 HTB-140).
`O=C1/C(=C/c2ccc3c(c2)OCCO3)SC(=S)N1[C@@H]1O[C@H](CO)[C@@H](O)[C@H](O)[C@H]1O` — result for “mRNA fold change”: 0.13 fold (HepG2; refers to: Bcl-2; IC50, 48 h; reference: untreated).

Repeated from above:
With `CC/C=C\C/C=C\C/C=C\C/C=C\C/C=C\C/C=C\CCC(=O)Nc1ccn(C2OC(CO)C(O)C2(F)F)c(=O)n1` (stereo not drawn) the CC50 was 84.4 µM (SW-620; NCI60 screen).
For `COC1CC(=O)N(C)C=CCCCC(=O)N(C)C(C(C)C)C(=O)N(C)C(CC(C)C)C(=O)OC(C(C)C)CC(C)C1` (stereo not drawn), “pathway activation z-score” read 2.12 (HCT-116; RNA sequencing, refers to: hepatic fibrosis signalling pathway; 20 µM, 12 h; direction not given).
